# Experimental data pooled from the literature.
# Lines come from different studies, so protocols differ. “And” joins repeats or separate records; there may be more than shown.
# U2AF2: U2AF2 148-342 (Homo sapiens, UniProt P26368)
# Chain of UniProt P26368 (whole entry, looked up): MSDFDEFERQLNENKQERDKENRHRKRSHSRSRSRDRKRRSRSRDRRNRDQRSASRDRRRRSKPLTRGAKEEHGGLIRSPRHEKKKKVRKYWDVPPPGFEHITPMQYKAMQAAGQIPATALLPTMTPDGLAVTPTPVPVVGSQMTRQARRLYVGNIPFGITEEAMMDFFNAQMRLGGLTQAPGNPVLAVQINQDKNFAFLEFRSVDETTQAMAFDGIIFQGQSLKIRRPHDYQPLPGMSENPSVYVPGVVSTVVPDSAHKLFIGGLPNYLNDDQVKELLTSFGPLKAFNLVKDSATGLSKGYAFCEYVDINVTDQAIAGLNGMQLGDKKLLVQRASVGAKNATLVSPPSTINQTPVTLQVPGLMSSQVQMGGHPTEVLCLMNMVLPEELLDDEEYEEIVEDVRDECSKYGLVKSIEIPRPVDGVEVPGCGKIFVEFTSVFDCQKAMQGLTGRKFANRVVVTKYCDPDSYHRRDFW
# B1: human RAB10; sequence looked up; chain MAKKTYDLLFKLLLIGDSGVGKTCVLFRFSDDAFNTTFISTIGIDFKIKTVELQGKKIKLQIWDTAGQERFHTITTSYYRGAMGIMLVYDITNGKSFENISKWLRNIDEHANEDVERMLLGNKCDMDDKRVVPKGKGEQIAREHGIRFFETSAKANINIEKAFLTLAEDILRKTPVKEPNSENVDISSGGGVTGWKSKCC
# B2: human calpain-1; sequence looked up; chain SEEIITPVYCTGVSAQVQKQRARELGLGRHENAIKYLGQDYEQLRVRCLQSGTLFRDEAFPPVPQSLGYKDLGPNSSKTYGIKWKRPTELLSNPQFIVDGATRTDICQGALGDCWLLAAIASLTLNDTLLHRVVPHGQSFQNGYAGIFHFQLWQFGEWVDVVVDDLLPIKDGKLVFVHSAEGNEFWSALLEKAYAKVNGSYEALSGGSTSEGFEDFTGGVTEWYELRKAPSDLYQIILKALERGSLLGCSIDISSVLDMEAITFKKLVKGHAYSVTGAKQVNYRGQVVSLIRMRNPWGEVEWTGAWSDSSSEWNNVDPYERDQLRVKMEDGEFWMSFRDFMREFTRLEICNLTPDALKSRTIRKWNTTLYEGTWRRGSTAGGCRNYPATFWVNPQFKIRLDETDDPDDYGDRESGCSFVLALMQKHRRRERRFGRDMETIGFAVYEVPPELVGQPAVHLKRDFFLANASRARSEQFINLREVSTRFRLPPGEYVVVPSTFEPNKEGDFVLRFFSEKSAGTVELDDQIQANLPDEQVLSEEEIDENFKALFRQLAGEDMEISVKELRTILNRIISKHKDLRTKGFSLESCRSMVNLMDRDGNGKLGLVEFNILWNRIRNYLSIFRKFDLDKSGSMSAYEMRMAIESAGFKLNKKLYELIITRYSEPDLAVDFDNFVCCLVRLETMFRFFKTLDTDLDGVVTFDLFKWLQLTMFA
Molecule,target or system,assay,system,conditions,scale,quantity,value
adrenomedullin,,RP-HPLC,HALO Phenyl-hexyl column,"25 µM, formic acid/methanol, 10 min gradient",,retention time,8.58 min
colistin,Klebsiella pneumoniae,broth microdilution,clinical isolate RKI-No_328/16,,,MIC,64 µg/mL
B1 (human RAB10),CYB5R4 knockout human cells,"PP6 interaction, 3xFLAG-PP6C IP-MS",,concentration not given,relative to: CYB5R4 KO over parental,log2 fold change,-0.12
GSGAGSETVV,"construct, MBP fusion, human SCRIB, PDZ 3-4",automated holdup,"peptide, crude extract","concentration not given, uncorrected, unit not given","relative to: biotin control resin, higher = stronger binding",binding intensity,0.082
heparin sodium,,,human,"intravenous infusion, 8 IU/kg/h, day 1 to 6",,ACT time to Emax,14 h
VVVGACGVGK,HLA-A*11:01 peptide-β2M single-chain trimer,"western blot, measured: pMHC-I","peptide, 293T cells","18 h, unit not given, added: 100 µg/mL cycloheximide",relative to: time zero,remaining protein,0.798 and 0.807 and 0.803
epoetin alfa,UT7/EPO,"RT-qPCR, measured: EGR3",,"concentration not given, 90 min, normalized to HPRT1",relative to: vehicle,mRNA level,22.5 fold
human FHL2,CYB5R4 knockout human cells,"PP4 interaction, 3xFLAG-PP4C IP-MS",,concentration not given,relative to: CYB5R4 KO over parental,log2 fold change,4
GAUCACAUU (ssRNA),U2AF2,sequencing of bound RNA,RNA,motif only,,Kd,4.95 µM
Peginesatide,UT7/EPO,"RT-qPCR, measured: EGR1",,"concentration not given, 90 min, normalized to HPRT1",relative to: vehicle,mRNA level,42.4 fold
CAGGGGUUU (ssRNA),U2AF2,sequencing of bound RNA,RNA,motif only,,Kd,1.88 µM
human endoplasmin,PP6C (human),"co-immunoprecipitation, IP-MS",CYB5R4 knockout cells,concentration not given,relative to: CYB5R4 knockout over parental,log2 fold change,-0.31
TASPAKETSF,"construct, MBP fusion, human SCRIB, PDZ 3-4",surface plasmon resonance,peptide,concentration not given,higher = stronger binding,normalised SPR binding response,57.5 normalised RU
B2 (human calpain-1),PP6C (human),"co-immunoprecipitation, IP-MS",CYB5R4 knockout cells,concentration not given,relative to: CYB5R4 knockout over parental,log2 fold change,0.66
maraviroc,,qPCR,"HIV-infected mice, somatosensory cortex","i.p., 120 mg/kg twice daily, 3 weeks post infection","relative to: HIV-infected untreated mice, increase",mRNA level,1.91 fold

# A few entries again:
Molecule,target or system,assay,system,conditions,scale,quantity,value
CAGGGGUUU (ssRNA),U2AF2,sequencing of bound RNA,RNA,motif only,,Kd,1.88 µM
human endoplasmin,PP6C (human),"co-immunoprecipitation, IP-MS",CYB5R4 knockout cells,concentration not given,relative to: CYB5R4 knockout over parental,log2 fold change,-0.31
